Assay results gathered from unrelated publications.
A part holds a random share of what one study measured.
Sequence of UniProt Q8RYC8 (whole entry, looked up): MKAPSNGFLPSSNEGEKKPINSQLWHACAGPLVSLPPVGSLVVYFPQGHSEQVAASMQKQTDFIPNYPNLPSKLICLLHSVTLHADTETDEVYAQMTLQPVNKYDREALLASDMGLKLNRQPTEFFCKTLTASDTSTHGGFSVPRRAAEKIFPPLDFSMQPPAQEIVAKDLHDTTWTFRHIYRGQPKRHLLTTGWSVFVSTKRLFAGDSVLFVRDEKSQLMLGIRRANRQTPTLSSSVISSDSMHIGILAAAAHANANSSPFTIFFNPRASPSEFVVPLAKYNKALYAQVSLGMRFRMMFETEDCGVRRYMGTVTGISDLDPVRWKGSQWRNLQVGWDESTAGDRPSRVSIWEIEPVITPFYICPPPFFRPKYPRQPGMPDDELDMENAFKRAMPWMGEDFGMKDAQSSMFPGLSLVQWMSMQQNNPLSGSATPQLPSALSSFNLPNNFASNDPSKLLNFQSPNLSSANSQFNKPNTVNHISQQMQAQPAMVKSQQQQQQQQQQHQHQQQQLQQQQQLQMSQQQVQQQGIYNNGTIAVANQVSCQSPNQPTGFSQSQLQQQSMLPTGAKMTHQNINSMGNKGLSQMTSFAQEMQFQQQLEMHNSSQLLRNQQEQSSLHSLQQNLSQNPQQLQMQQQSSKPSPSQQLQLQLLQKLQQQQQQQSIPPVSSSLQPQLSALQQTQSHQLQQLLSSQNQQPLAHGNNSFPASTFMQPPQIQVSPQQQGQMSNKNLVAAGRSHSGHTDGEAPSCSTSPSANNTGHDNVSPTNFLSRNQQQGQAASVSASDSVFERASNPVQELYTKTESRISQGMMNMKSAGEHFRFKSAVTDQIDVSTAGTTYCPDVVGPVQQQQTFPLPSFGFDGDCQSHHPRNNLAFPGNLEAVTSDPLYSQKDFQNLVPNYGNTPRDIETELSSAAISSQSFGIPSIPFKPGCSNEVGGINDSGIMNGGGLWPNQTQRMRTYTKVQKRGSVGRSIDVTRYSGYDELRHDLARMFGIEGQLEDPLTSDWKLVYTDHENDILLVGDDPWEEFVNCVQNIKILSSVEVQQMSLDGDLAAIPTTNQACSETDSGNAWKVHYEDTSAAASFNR

Series 1
Target: RNA binding protein fox-1 homolog 2, RRM domain, GST-SBP tag (RBFOX2, Homo sapiens, UniProt O43251-10, residues 100-194)
Method: RNA Bind-n-Seq
Molecule type: RNA
Medium: in vitro
Concentration: 365 nM
Notes: natural RNA segment, single round, ends assumed
Baseline: no-protein control
Direction: higher = stronger binding
Shared flanks, not repeated: GGGAGUUCUACAGUCCGACGAUC … UGGAAUUCUCGGGUGCCAA
Residues (chain): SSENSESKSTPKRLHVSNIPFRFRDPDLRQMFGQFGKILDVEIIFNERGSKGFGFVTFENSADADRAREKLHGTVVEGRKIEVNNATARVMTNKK
`UCUAUGGCUCUUCCUGAGAGCACACCUCUGGGUCUCAUCUGACAGAGUCUGUGGGCCAAGUGUCUGCCUAGAAGAGCUGUGUAUGUCUGGCUAGAAGCAGCCAGGCCAUG`: “RBNS enrichment (R)” 0.357.
Under “RBNS enrichment (R)”, `UAAAGCAGGCUGAUCGGGCAAUGGGAGGUGGCCAGGCCUGCCAGCCCCUCGGCUCUGCCGCGGUGGGCCGAGGCCGCUGUUGGGGGUUUCCCUGUGUGGACCAUGGGGAU` is recorded as 0.453.
`GGGAGUGUGCUCCAGCUGCCCCCGACUUGUUUGGGUGAUCUCUCUGGGGCGGCACGUUUUACUCUUUAUCUCGCUUUCGGAGGUGCUUUCGCAGGAGCAUUAACCUCCUG`: “RBNS enrichment (R)” 0.554.
Under “RBNS enrichment (R)”, `GUAUGGCUUGUACCCAGAUGGCGCACUGUGCAGCCUGUGUAGCAUGCACAGUGACCCAGCUGAGUGGCAGGUGGUUGGAGGCAAGGACAUUUAUGUGGGCCACAUACCCA` is recorded as 0.354.
For `AAACCCACCAAACCAACAGGAUAAUUGACAAAUAAACGCCAUAGGCUAGGCUGAACUGUAUGUUACUGUUUUCAUGCUUAUACAUAUAUUUUCAAUCACAUACAAGUACA`, “RBNS enrichment (R)” read 0.488.
`CCAGACUGAGUCCUCUCCCCAAAUCAGGGCUCUAGACCCGAGCCCUCCAAACCUGGACUCUGGGACUUAGGCCCCCUUAAAUCUAGACUUCUCUUUAUAGGUUUCAGGUC`: “RBNS enrichment (R)” 0.284.
Under “RBNS enrichment (R)”, `CACUAUAAGGCUGAGGGCUGCCAGCAGCCCCGUCUGCCCACCAUUCCCGGCCGUGGACCAUAGUCGGGAUGUCAGCAGACACACAUGGGCAGCCCAAAGCUGCAGGUGCC` is recorded as 0.224.
`UUUAAGUACUCUUCCAGAUGAGAGCUCUUCUACCUUACGUCCAAGAUCUGUAUAUGUGGGAACAAAUAAGUAAAUAUAUAUACAUAUAUAUAUAUUUAAGUACAGUUUUC`: “RBNS enrichment (R)” 1.02.

Series 2
Target: PABPC1L2, full length, GST fusion (mouse, UniProt A0ABA7IW68)
Method: RNAcompete
Molecule type: RNA
Medium: in vitro
Concentration: 20 nM
Notes: 7-mer, probes averaged, single round
Baseline: mean of 7-mers
Direction: higher = stronger binding
Construct (chain): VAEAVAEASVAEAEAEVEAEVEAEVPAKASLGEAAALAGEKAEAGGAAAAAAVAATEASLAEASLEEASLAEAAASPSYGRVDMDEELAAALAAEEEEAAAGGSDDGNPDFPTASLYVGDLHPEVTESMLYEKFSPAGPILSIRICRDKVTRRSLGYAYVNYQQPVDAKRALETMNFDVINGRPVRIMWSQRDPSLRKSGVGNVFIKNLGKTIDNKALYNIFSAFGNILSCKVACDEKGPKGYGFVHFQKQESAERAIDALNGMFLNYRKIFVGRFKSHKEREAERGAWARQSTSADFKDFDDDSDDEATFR
With `GUUCUUG` the 7-mer Z-score was -0.405.
`CCAUAGG` gave a 7-mer Z-score of -0.0826.
For `CAGGCAU`, the 7-mer Z-score was 0.111.
`ACGCCGU` gave a 7-mer Z-score of -0.315.
`CCCAGCA` has a 7-mer Z-score of -0.26.
With `GUAAGUA` the 7-mer Z-score was -0.13.
`ACUAUCA` gave a 7-mer Z-score of -0.142.

Other studies, line by line
B1: ARF1 538-665 (Arabidopsis thaliana, UniProt Q8L7G0); chain SRQIRSCTKVHMQGSAVGRAIDLTRSECYEDLFKKLEEMFDIKGELLESTKKWQVVYTDDEDDMMMVGDDPWNEFCGMVRKIFIYTPEEVKKLSPKNKLAVNARMQLKADAEENGNTEGRSSSMAGSR
`PhoQ, residues 284 288 289 292 302 303 SSTLLI` has a fold induction of 1.54 (PhoP, residues 12 14 15 18 19 NHFRA (Escherichia coli, UniProt P23836); Sort-seq, refers to: YFP reporter; E. coli; PhoQ-PhoP variant library, with: 10 µM Mg2+; baseline: high Mg2+ state, higher = stronger signaling).
`B1 (ARF1 538-665)` has a positive tests of 0 (ARF19 948-1086 (Arabidopsis thaliana, UniProt Q8RYC8); two-hybrid; baseline: out of 3 tests, higher = firmer interaction).
